Results collected from several papers.
A part holds a random share of what one study measured. Substitutions count along the parent as printed.

Sample 1
Target: CCNB1, cyclin fold, Cln2 fusion (human)
Technique: yeast growth competition, sequencing
Sample: yeast
Setting: weak parent motif
Relative to: not given
Reading: higher = stronger binding
Starting sequence: GMNC docking peptide (human); KNAKRNLSSEFAN
Variant | normalised enrichment score
K4G | 0.331
F11K | 0.044
R5Q | 0.22

Sample 2
Target: Fragile X messenger ribonucleoprotein 1, C-terminal low-complexity region (Fmr1, Mus musculus, UniProt P35922)
Technique: RNA Bind-n-Seq
Molecule type: RNA
Sample: in vitro
Concentration: 200 nM
Setting: whole 134-nt RNA, ends assumed
Together with: 150 mM KCl
Relative to: input library
Reading: higher = stronger binding
Constant ends, left off below: GGGAGUUCUACAGUCCGACGAUC … UGGAAUUCUCGGGUGUCAAGG
Sequence | log2 enrichment
UCCUCAAGUCCUGUGCUACACAUCGUAUGUACCGAAUCGGUGGUGGGGUGGAAAGUAUUAUGUUACGCCGUUCGGAUCUGCACUUCCAGC | -0.0925
UAACUUUAGAGGAGGAUCUGAUGGAUAUGGCAGUGGACGUGGAAUUGGGGAUGGCUAUAAUGGGUAUGGAGGAGGACCUGGAGGUGGCAA | 0.286
AGUCCUGUGCUACACAUCGUAUGUACCGAAUCGGGAAAAGGGAAAAGGGAAAAGGGGAAAGUAUUAUGUUACGCCGUUCGGAUCUGCACU | 0.298
UCCUGUGCUACACAUCGUAUGUACCGAAUCGGGAAAAAAGGAAAAAAGGGAAAAAAGGGAAAGUAUUAUGUUACGCCGUUCGGAUCUGCA | -0.17
UCAAGUCCUGUGCUACACAUCGUAUGUACCGAAUCGGGGCCGGGGCCGGGCCGGAAAGUAUUAUGUUACGCCGUUCGGAUCUGCACUUCC | -0.141

Sample 3
Target: RNA binding protein fox-1 homolog 2, RRM domain, GST-SBP tag (RBFOX2, Homo sapiens, UniProt O43251-10, residues 100-194)
Technique: RNA Bind-n-Seq
Molecule type: RNA
Sample: in vitro
Concentration: 365 nM
Setting: natural RNA segment, single round, ends assumed
Relative to: no-protein control
Reading: higher = stronger binding
Constant ends, left off below: GGGAGUUCUACAGUCCGACGAUC … UGGAAUUCUCGGGUGCCAA
Construct (chain): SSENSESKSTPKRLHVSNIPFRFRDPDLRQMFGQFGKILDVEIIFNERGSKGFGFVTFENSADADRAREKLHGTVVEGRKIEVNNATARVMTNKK
Sequence | RBNS enrichment (R)
AUUAUUCCAUCCAAAAUUUCUGGUGAAUUACACAGAAAUUUUUGGAAAUGGGACUUUGUGCAGGUAACCACCCUGCACUUCAGGUAAUGUUCCUGUCACAGCUGUCGACU | 0.264
CUCCACCACAGAACUAGACUUGUUUUUUAAGAAAAUAUAUAUUAUAUAUAGAGAGAAUUGGUCUCGUUUAAACACGCCGAACCUCACCAUAUGGAGCCAGACAUUGGGAC | 1.19
GGCUGUGGGCUAUCUGGGUACAAUGAUUUAGCCGUGGCUGUGGGCUAUCUGGGUGCAAUGAUUUAGCCGUGGCUGUGGGCUAUCUUCCUGUUAGCCUUGGACUGAAGGGG | 1.07
CAGCAGAUUAUAAUCUUGUCAACAGUUCAUUGUCUCCUCUUAGUACCACCAGUCACCUGCAUCAUUCAUGCUAGAAGCUGUGUUCUAGCCAUGCAGUUACAUCUCUUUCU | 0.448
UUUUUGUUUUGUUUUGUUUUCUUUUGUUUCUCCUAAGGGACAAGCAUGGGUGUUUGAUUUCAGAAAUCAGUAUCUGGUGAGAUUUUUGUCUCAAAACUACCAUUUGAAUU | 1.45
GAUACAGUGAAACAAUUAAGGUGAGCAAAUAGUUUUAACUUUUCUUUUUUUUUUUUAAGUUUCAUUCUUCCUAGAAUAUUUUUCUAACAAUUUUUAUUUCAGCUUUAAAG | 0.922
UCAUGUUUUGUUAAUCCGCUUCACUAAAUUGGACCUUCACAUAUCUAAAAAGCUCUGAAGUGUUUGUAUAUUUGAAAUACCUCAAUAAAGAGAGAGCUCAUUGACUGUAA | 0.403

Single results of other studies
Substance | target | test | test system | conditions | scale | quantity | value
PhoQ, residues 284 288 289 292 302 303 SSLVEF | PhoP, residues 12 14 15 18 19 HLGGL (Escherichia coli, UniProt P23836) | Sort-seq, item: YFP reporter | E. coli | PhoQ-PhoP variant library, together with: 10 µM Mg2+ | relative to: high Mg2+ state, higher = stronger signaling | fold induction | 1.82

A few entries again (sample 2):
Sequence | log2 enrichment
UCCUGUGCUACACAUCGUAUGUACCGAAUCGGGAAAAAAGGAAAAAAGGGAAAAAAGGGAAAGUAUUAUGUUACGCCGUUCGGAUCUGCA | -0.17
